Published values pooled from the literature.
Each line is one published result; not all experiments were run side by side.
Cell line: SK-OV-3
Read-out: cell growth or viability

The IC50 of `C=CC[P](c1ccccc1)(c1ccccc1)[Pt]([S]c1nc2ccccc2[nH]1)([S]c1nc2ccccc2[nH]1)[P](CC=C)(c1ccccc1)c1ccccc1` is reported as 21.7 µM (MTT).
For `N.N.O=C([O][Pt]([Cl])([Cl])[O]C(=O)c1ccc(P(c2ccccc2)c2ccccc2)cc1)c1ccc(P(c2ccccc2)c2ccccc2)cc1.[Cl][Au].[Cl][Au]`, the IC50 was 7.9 µM (resazurin; 72 h).
`C[C@H]1C(OCCCCCCCC[P+](c2ccccc2)(c2ccccc2)c2ccccc2)O[C@@H]2O[C@@]3(C)CCC4[C@H](C)CCC1[C@]42OO3` (stereo partly shown) has an IC50 of 0.0747 µM (MTT; 72 h).
`O=C(Cc1ccc2ccccc2c1)N[C@H](Cc1ccccc1)C(=O)N[C@H](Cc1ccccc1)C(=O)N[C@H](Cc1ccc(O)cc1)C(=O)N[C@H](Cc1ccc(O)cc1)C(=O)O` has an IC50 of > 500 µg/mL (MTT).
`C=CC[P](c1ccccc1)(c1ccccc1)[Pt]([S]c1ccccn1)([S]c1ccccn1)[P](CC=C)(c1ccccc1)c1ccccc1` gave an IC50 of 6.23 µM (MTT).
`O=C(Cc1ccc2ccccc2c1)N[C@H](Cc1ccc(OP(=O)(O)O)cc1)C(=O)N[C@H](Cc1ccccc1)C(=O)N[C@H](Cc1ccccc1)C(=O)N[C@H](Cc1ccc(OP(=O)(O)O)cc1)C(=O)O` gave an IC50 of > 483 µg/mL (MTT).
With `C=CC[P](c1ccccc1)(c1ccccc1)[Pt]([S]c1ncccn1)([S]c1ncccn1)[P](CC=C)(c1ccccc1)c1ccccc1` the IC50 was 12.4 µM (MTT).
The IC50 of `C[C@H]1C(OCCCCCCCCC[P+](c2ccccc2)(c2ccccc2)c2ccccc2)O[C@@H]2O[C@@]3(C)CCC4[C@H](C)CCC1[C@]42OO3` (stereo partly shown) is reported as 0.103 µM (MTT; 72 h).
`NC1CCCCC1N.O=C1[O][Pt]([O]C(=O)c2ccc(P(c3ccccc3)c3ccccc3)cc2)([O]C(=O)c2ccc(P(c3ccccc3)c3ccccc3)cc2)[O]C1=O.[Cl][Au].[Cl][Au]` gave an IC50 of 2.99 µM (resazurin; 72 h).
`C[C@H]1C(OCCCCC[P+](c2ccccc2)(c2ccccc2)c2ccccc2)O[C@@H]2O[C@@]3(C)CCC4[C@H](C)CCC1[C@]42OO3` (stereo partly shown) gave an IC50 of 0.095 µM (MTT; 72 h).
`O=C(O)c1ccc([PH]([Au][Cl])(c2ccccc2)c2ccccc2)cc1` has an IC50 of 49 µM (resazurin; 72 h).
`C[C@H]1C(OCCCCCCCCCCC[P+](c2ccccc2)(c2ccccc2)c2ccccc2)O[C@@H]2O[C@@]3(C)CCC4[C@H](C)CCC1[C@]42OO3` (stereo partly shown) has an IC50 of 0.119 µM (MTT; 72 h).
`O=C(Cc1ccc2ccccc2c1)N[C@H](Cc1ccccc1)C(=O)N[C@H](Cc1ccccc1)C(=O)N[C@H](Cc1ccc(O)cc1)C(=O)N[C@H](Cc1ccc(OP(=O)(O)O)cc1)C(=O)O` has an IC50 of 283 µg/mL (MTT).
